Results collected from several papers.
Every numbered part comes from another study and shows a few of its results, in no order.

Set 1
Target: RING finger protein unkempt homolog, zinc fingers 1-6, GST-SBP tag (UNK, Homo sapiens, UniProt Q9C0B0, residues 30-357)
Chain of UniProt Q9C0B0 (30-357, looked up): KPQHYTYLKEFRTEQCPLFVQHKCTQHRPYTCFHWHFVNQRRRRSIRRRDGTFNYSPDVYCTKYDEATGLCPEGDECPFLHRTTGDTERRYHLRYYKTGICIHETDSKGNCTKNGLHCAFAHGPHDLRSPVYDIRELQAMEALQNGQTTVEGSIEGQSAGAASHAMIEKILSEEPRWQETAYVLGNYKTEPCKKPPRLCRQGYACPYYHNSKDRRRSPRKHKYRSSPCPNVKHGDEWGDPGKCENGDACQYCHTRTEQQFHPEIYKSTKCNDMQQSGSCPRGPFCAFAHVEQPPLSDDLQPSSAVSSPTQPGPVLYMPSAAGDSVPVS
Technique: RNA Bind-n-Seq
Molecule type: RNA
Matrix: in vitro
Concentration: not given
Notes: RNA with constant flanks, human and mouse sites, ends assumed
Reference: input RNA pool
Reading: higher = stronger binding
| Sequence | bound/input enrichment |
| --- | --- |
| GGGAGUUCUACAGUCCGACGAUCUUGAUGCCUUGGGAGUCAGACAUUUGGGACAUCAACAACCAAAUCUGUACAGUUAAAGAUAUUAAGGCAGAACCUCAGCCACUUUCUCCAGCCUCCUCAAGUUAUUCAGUCUCGUCUCCUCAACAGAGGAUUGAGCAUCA | 0.238 ratio |
| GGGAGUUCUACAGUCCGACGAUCAAAUCGGGCUGAAGCGACUGAGUCCGCGAUGGAGAGAGAAAAGGAACAGUUCCGAAAGCUCUUUAUUGGUGGCUUAAGCUUUGAAACCACAGAAGAAAGUUUGAGAAACUACUAUGAGCACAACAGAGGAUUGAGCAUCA | 0.316 ratio |
| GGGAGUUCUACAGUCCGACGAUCAAAGGUGACAAGGCUCUUGAUGGCUAUAGUAAAAAAAAGUACGUCUGCAAGUUGCUCUUCAUCUUUCUCCUUGGUCAUGACAUUGACUUUGGACACAUGGAGGCUGUGAACCUGCUGAGUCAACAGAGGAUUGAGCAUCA | 0.167 ratio |
| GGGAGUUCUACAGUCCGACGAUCCCCCCAACUGCCAAUGAGAAGGCUGAUACUGAGGUUUCAGCAGCUGCUGCCAGGCCUAAGACAGGCUUUAAGGCCCAGAAUGCCACCACAAAGGGGCCAAAUGAUUACUCUCAGGCACGUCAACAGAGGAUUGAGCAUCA | 0.167 ratio |
| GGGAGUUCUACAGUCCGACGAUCAUUUGUUUAAAUUUUUUUCAUUCUUUAAUUUUGUUAUCAGUGCCAGCCCAAUAUACCUGCUCUACCAUUAUUUGCGGUCUGAUAAAAGGGUCCUUGUGGGGCAGGUUUUGCAAAGCUUAUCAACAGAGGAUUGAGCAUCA | 9.39 ratio |
| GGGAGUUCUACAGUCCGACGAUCGGAGCCACGGGUUCUGUCCAGACUAUCUAUAUGUGUGUGGGAUGUGUGUGUAGAUGGAUGGAUAGAUAGAUAGGCAGGCUACAUAUAGGUUGGCUAUAUAUAGGUUAGCUAUAUACAGGUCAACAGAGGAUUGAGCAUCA | 0.877 ratio |
| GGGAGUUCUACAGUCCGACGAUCGAAGAGGAAAGAUUAGUAUCUCUUGUAUUUGGGCUUUUGAAACAAAGAAAACUUAAUUUUUUAGAAAUCUAUGGUGAAGAAAUGAUUAUUACAGCAAAGAACAUCAUUAAAGAGCGUGUGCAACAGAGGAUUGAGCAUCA | 6.16 ratio |
| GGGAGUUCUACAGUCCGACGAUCUACUGUGACCUCCAGCAAGAACCCAAUGGUAUCACCGGAAUCCUGAAGUGGGUAAAACUGAUAGACAACUUUGAAGGAGAAUACGACUACGUAACCAACGAGGGCACAGUGUUCACAUUCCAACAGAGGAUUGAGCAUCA | 0.109 ratio |
| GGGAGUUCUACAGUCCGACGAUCAAUUUAGAGGAGUAUCUAAGACUGGUUAUAUUCUGGGCACUAAAUGAAGGCGUUUCUAGGCAAUUUGAUUCGUUCAGAGAUGGAUUUGAAUCAGUCUUCCCACUCAGUCAUCUUCAGUACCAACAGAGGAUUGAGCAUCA | 0.258 ratio |
| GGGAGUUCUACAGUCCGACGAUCUAUAAAGCACUUGAAUCGAUUGAAUAUGUUCAGACAUUCAAAGGAUUGAAGACUAAAUAUGAGCAAGAAAAAGACAGACAAAAUCAGAAACUGAACAGUGUACCAUCUAUAUUGCGUAGUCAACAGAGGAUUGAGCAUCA | 0.281 ratio |
| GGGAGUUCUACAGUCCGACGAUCCUGAAGUACAAUCAAGCUACACAGACUUUCCACCAAUGGAGGGAUGCUAGACAGGUGUAUGGUCUCAACUUUGGCAGCAAAGAGGAUGCCAAUGUCUUCGCAAGUGCCAUGAUGCAUGCCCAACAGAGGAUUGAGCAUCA | 0.12 ratio |

Set 2
Target: Fragile X messenger ribonucleoprotein 1, C-terminal low-complexity region (Fmr1, Mus musculus, UniProt P35922)
Technique: RNA Bind-n-Seq
Molecule type: RNA
Matrix: in vitro
Concentration: 200 nM
Notes: whole 134-nt RNA, ends assumed
With: 150 mM LiCl
Reference: input library
Reading: higher = stronger binding
Each molecule: 7-deaza-guanosine replaces G
| Sequence | log2 enrichment |
| --- | --- |
| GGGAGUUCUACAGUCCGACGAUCCAAGUCCUGUGCUACACAUCGUAUGUACCGAAUCGGGGCCCGGGGCCCGGGCCCGGAAAGUAUUAUGUUACGCCGUUCGGAUCUGCACUUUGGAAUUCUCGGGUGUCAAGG | -1.9 |
| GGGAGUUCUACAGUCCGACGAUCUUCGAAGAGGUUGUGUACCAGGCCAUGGGUGAGUGCCCGGGCCACCGAGGCCACGUGCCUCCACGAGGGGCUGCCUAUGCCCCACCCUGGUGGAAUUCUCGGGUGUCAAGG | -0.195 |
| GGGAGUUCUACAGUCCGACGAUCUCAAGUCCUGUGCUACACAUCGUAUGUACCGAAUCGGUUGGGUUGGGGUUGGGGAAAGUAUUAUGUUACGCCGUUCGGAUCUGCACUUCCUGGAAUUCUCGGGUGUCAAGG | -1.04 |
| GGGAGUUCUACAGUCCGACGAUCCACAGACAACACGCACCCACACAGACACAGAGGUAAGGGGUUGGGAUGGGGACAGGGUGCACAGCAGGGCGGGGUAGGACCCCAGCCCCUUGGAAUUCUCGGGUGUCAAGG | 0.262 |
| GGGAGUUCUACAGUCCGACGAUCAAGUCCUGUGCUACACAUCGUAUGUACCGAAUCGGGGAGGGGUUUGGGGUUUGGGGAAAGUAUUAUGUUACGCCGUUCGGAUCUGCACUUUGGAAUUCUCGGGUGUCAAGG | -0.937 |
| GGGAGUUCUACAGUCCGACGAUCCCUGUGCUACACAUCGUAUGUACCGAAUCAAAUUUUUAAAUUUUUUUAAACCCCCCCAAAAAAGUAUUAUGUUACGCCGUUCGGAUCUGCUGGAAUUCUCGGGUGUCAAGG | 1.3 |
| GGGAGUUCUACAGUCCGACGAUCAAGUCCUGUGCUACACAUCGUAUGUACCGAAUCGGGUUUGGGAAAAAAAGGGUGGGAAAGUAUUAUGUUACGCCGUUCGGAUCUGCACUUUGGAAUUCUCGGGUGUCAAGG | -1.81 |
| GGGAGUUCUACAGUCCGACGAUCCUCAAGUCCUGUGCUACACAUCGUAUGUACCGAAUCGUGUGUGUGUGUGUGUGUAAAGUAUUAUGUUACGCCGUUCGGAUCUGCACUUCCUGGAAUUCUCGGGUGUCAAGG | -0.495 |
| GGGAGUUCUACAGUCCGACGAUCCUCAAGUCCUGUGCUACACAUCGUAUGUACCGAAUCGGUUUUUUUGGUGGAGGAAAGUAUUAUGUUACGCCGUUCGGAUCUGCACUUCCAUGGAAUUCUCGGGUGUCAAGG | -0.23 |
| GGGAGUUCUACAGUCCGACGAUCUCAAGUCCUGUGCUACACAUCGUAUGUACCGAAUCGGGUUGGGGUUGGGGUUGGAAAGUAUUAUGUUACGCCGUUCGGAUCUGCACUUCCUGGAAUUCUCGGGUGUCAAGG | -1.01 |
| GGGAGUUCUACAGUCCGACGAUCUUUUAAUUUGUUUGUCUCUCAUGAAACUAUGGUCUUUUAAAAAUUAAAGGUUUUUUUUUUCCCCUUAGACGAAACUGCAAAGGAAAUCCGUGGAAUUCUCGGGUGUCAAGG | 0.209 |

Set 3
Target: Histone acetyltransferase KAT6A, winged helix 1, GST fusion (KAT6A, Homo sapiens, UniProt Q92794, residues 1-85)
Technique: protein binding microarray
Molecule type: double-stranded DNA, one strand shown
Matrix: in vitro
Concentration: not given
Notes: 8-mer, flanks averaged, mean of 2 arrays, mostly near background
Reference: not given
Reading: higher = stronger binding
Target sequence (chain): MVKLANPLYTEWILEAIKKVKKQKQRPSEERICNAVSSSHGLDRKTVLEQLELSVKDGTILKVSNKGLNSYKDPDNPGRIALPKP
| Sequence | E-score |
| --- | --- |
| CGAAGTGC | 0.0705 |
| CCCCAAGA | -0.264 |
| GTGCCGTA | 0.377 |
| AGGGCAAG | -0.208 |
| AAACCTAA | 0.111 |
| CCAAGTTC | -0.151 |
| GATAGGGC | -0.173 |
| CTAATCCA | -0.179 |
| CCCACTCG | -0.0974 |
| GGTCGAAC | 0.0884 |
| TTCTACAA | -0.0147 |
| ATCCGCAG | 0.057 |
| AAAAAACA | -0.194 |
| CTAGTTCA | -0.169 |
| GTAGGCGA | -0.046 |
| AGTCAGTG | -0.227 |
| CTTGATTA | -0.0613 |
| TCGTATCA | -0.119 |
| CTACATAC | -0.0907 |
| CTCGCATC | -0.0393 |
| CGGCTTGC | 0.33 |
| GGTACAAC | -0.129 |
| CATGTGAG | -0.248 |

Set 4
Target: Interferon regulatory factor 3, full length, phosphomimetic (IRF3, Homo sapiens, UniProt Q14653, residues 1-427, S386D/S396D/S398D/S402D/T404D/S405D)
Technique: protein-binding microarray
Molecule type: double-stranded DNA, one strand shown
Matrix: in vitro
Concentration: 2540 nM top
Notes: 60-bp whole probe
With: salmon DNA 0.4 mg/ml
Reference: random background probes
Reading: higher = stronger binding
Shared flanks, not repeated: GCCTAGCAC … GTCTTGATTCGCTTGACGCTGCTG
Construct (chain): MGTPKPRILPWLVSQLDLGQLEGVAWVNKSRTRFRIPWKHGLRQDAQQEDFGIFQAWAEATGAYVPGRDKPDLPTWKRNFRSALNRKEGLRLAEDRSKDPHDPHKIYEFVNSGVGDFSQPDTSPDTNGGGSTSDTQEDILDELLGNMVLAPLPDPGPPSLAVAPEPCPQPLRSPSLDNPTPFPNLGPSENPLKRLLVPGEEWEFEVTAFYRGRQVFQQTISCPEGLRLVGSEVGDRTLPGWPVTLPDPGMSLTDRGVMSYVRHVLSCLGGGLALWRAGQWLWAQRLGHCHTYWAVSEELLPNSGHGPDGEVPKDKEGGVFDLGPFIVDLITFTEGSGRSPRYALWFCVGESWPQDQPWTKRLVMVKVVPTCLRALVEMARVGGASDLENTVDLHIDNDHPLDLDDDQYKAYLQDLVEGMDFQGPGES
| Sequence | fitted relative affinity [z-score] |
| --- | --- |
| TCATTTTTGTAATCGAAAACTGTGCTA | 1.82 |
| TTACGTATCCTACTGCTTTAGTGCTAG | 2.27 |
| GACGGTCTCCTTAACCTGACGTGCTAG | 1.09 |
| TTAGGTATCGACACTGGGTAAGTGCTA | 0.279 |
| GACGAACTGGGGATTGGAGACGTGCTA | -0.418 |
| GATGGTTTCCTTTTCCTGACGTGCTAG | 10.9 |
| TTAGGTTCCGGACTGGGTTAGTGCTAG | 2.52 |
| TTAAAACTGGGGTATCGATTAGTGCTA | -0.285 |
| GACGATTTCGGGACTCGAGACGTGCTA | 1.69 |
| TCCATCATTGCTTTCTCTTTGTGCTAG | 0.857 |
| TTCTAATTTACTTTGGTTGGGTGCTAG | 0.497 |
| TCATTCTTGCATCTGGGACTGTGCTAG | 1.58 |
| AGTGCTATACCACTCTTGCTGTGCTAG | 0.125 |
| TGTCATTTTCTCTTATTCTAGTGCTAG | 2.55 |
| GACGGACTGGGTTCCGGGACGTGCTAG | -0.341 |
| TTAGGTCTCCTACTGCTTTAGTGCTAG | 0.679 |
| CTAATTAGAATTTTCATTAAGTGCTAG | 2.02 |
| GAAGCCCTCCCTGTGGGGGGGTGCTAG | -0.291 |
| TTAGGTATCCTTATCCTTTCGTGCTAG | 5.54 |
| ATAGGTTTCGACTTTCGGTTAGTGCTA | 4.42 |
| GACGGTCTCCTTCTCCTGCCGTGCTAG | 3.83 |
| GACGAACTGAGACTGGAGATGTGCTAG | -0.294 |

A few entries again (set 1):
| Sequence | bound/input enrichment |
| --- | --- |
| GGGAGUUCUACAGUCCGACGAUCUACUGUGACCUCCAGCAAGAACCCAAUGGUAUCACCGGAAUCCUGAAGUGGGUAAAACUGAUAGACAACUUUGAAGGAGAAUACGACUACGUAACCAACGAGGGCACAGUGUUCACAUUCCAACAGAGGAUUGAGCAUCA | 0.109 ratio |
| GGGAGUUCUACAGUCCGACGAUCGAAGAGGAAAGAUUAGUAUCUCUUGUAUUUGGGCUUUUGAAACAAAGAAAACUUAAUUUUUUAGAAAUCUAUGGUGAAGAAAUGAUUAUUACAGCAAAGAACAUCAUUAAAGAGCGUGUGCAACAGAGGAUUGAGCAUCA | 6.16 ratio |
| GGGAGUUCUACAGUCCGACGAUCCUGAAGUACAAUCAAGCUACACAGACUUUCCACCAAUGGAGGGAUGCUAGACAGGUGUAUGGUCUCAACUUUGGCAGCAAAGAGGAUGCCAAUGUCUUCGCAAGUGCCAUGAUGCAUGCCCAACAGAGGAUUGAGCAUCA | 0.12 ratio |
| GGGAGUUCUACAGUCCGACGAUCUAUAAAGCACUUGAAUCGAUUGAAUAUGUUCAGACAUUCAAAGGAUUGAAGACUAAAUAUGAGCAAGAAAAAGACAGACAAAAUCAGAAACUGAACAGUGUACCAUCUAUAUUGCGUAGUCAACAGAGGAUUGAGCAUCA | 0.281 ratio |
